Measured values pooled from the literature.
Numbered parts are unrelated; each lists some results of a single study.

Series 1
Target: PABPC1L2, full length, GST fusion (mouse, UniProt A0ABA7IW68)
Technique: RNAcompete
Form: RNA
Sample: in vitro
Concentration: 20 nM
Notes: 7-mer, probes averaged, single round
Baseline: mean of 7-mers
Reading: higher = stronger binding
Construct (chain): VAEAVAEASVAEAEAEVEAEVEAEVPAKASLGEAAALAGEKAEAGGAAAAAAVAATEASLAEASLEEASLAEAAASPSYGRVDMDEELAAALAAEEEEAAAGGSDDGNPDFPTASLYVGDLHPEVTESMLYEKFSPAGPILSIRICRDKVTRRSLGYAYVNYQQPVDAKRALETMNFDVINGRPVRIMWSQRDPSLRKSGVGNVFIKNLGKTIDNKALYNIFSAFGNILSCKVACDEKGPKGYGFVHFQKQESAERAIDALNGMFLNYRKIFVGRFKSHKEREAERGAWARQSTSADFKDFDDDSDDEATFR
Oligonucleotide	7-mer Z-score
GUCGGAG	-0.101
AUGUGGA	0.249
UUUAGAU	0.0152
GGUUUAG	-0.253

Series 2
Target: Replicase polyprotein 1ab, main protease (rep, Severe acute respiratory syndrome coronavirus 2, UniProt P0DTD1)
Effect on: enzyme activity
Action: inhibitor
Concentration: 20 µM
Notes: hit confirmation
Structure (SMILES)	inhibition [%]
CO[C@H]1C([C@@]2(C)O[C@@H]2CC=C(C)C)[C@]2(CC[C@H]1OC(=O)NC(=O)CCl)CO2 (stereo partly drawn)	58.2
CN1CCN(C2=C(Cl)C(=O)N(c3ccc(Cl)c(Cl)c3)C2=O)CC1	110
COc1ccc2[nH]c(S)nc2c1	81.4
NS(=O)(=O)c1ccc2c(c1)C1C=CCC1C(c1ccc(Br)cc1)N2 (stereo not drawn)	1.6

Series 3
Target: Histone acetyltransferase KAT6A, winged helix 1, GST fusion (KAT6A, Homo sapiens, UniProt Q92794, residues 1-85)
Technique: protein binding microarray
Form: double-stranded DNA, one strand shown
Sample: in vitro
Concentration: not given
Notes: 8-mer, flanks averaged, mean of 2 arrays, mostly near background
Baseline: not given
Reading: higher = stronger binding
Residues (chain): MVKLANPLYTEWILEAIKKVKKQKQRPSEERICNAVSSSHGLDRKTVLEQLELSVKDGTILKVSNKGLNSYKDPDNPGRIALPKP
Oligonucleotide	E-score
TATCGTAA	0.0805
ACGCAAGA	0.0301
AAGTTTGC	-0.0414
AGGATGGG	-0.269
GCGGGGCC	0.424
TAAAGCTA	-0.102
AGCAAAGA	-0.225
CAGTGTAC	-0.0204

Series 4
Target: Replicase polyprotein 1ab, nsp13 helicase (rep, Severe acute respiratory syndrome coronavirus 2, UniProt P0DTD1)
Action: inhibitor
Concentration: 20 µM
Compound	inhibition
COc1ccc(C(=O)Nc2sc3c(c2C(N)=O)CCCC3)cc1OC	3.03%
C[C@@H](C(=O)O)c1ccc(-c2ccccc2)c(F)c1	-0.66%
NC(=O)CN1C=CCC(C(N)=O)=C1	2.94%
CCC1(CC)C(=O)C=CNC1=O	7.11%
CC(=O)N(C)c1cc(-c2ccnc3c(C(=O)c4cccs4)cnn23)ccc1F	0.96%
Cc1ccc(S(=O)(=O)n2c(N)nc3ccccc32)cc1	4.69%
NS(=O)(=O)c1cc(Cl)c(Cl)c(S(N)(=O)=O)c1	4.05%
CO/N=C(\C(=O)N[C@@H]1C(=O)N2C(C(=O)O)=C(CSc3nc(=O)c(O)nn3C)CS[C@H]12)c1csc(N)n1	10.6%
CCCCOc1ccc(CC(=O)NO)cc1	3.13%
O=C(/C=C/c1cccnc1)NCCCCC1CCN(C(=O)c2ccccc2)CC1	2.28%
CC1CCc2cc(F)cc3c(=O)c(C(=O)O)cn1c23 (stereo not drawn)	-5.44%
COc1cc2cc(c1Cl)N(C)C(=O)C[C@H](OC(=O)C(C)C)[C@]1(C)O[C@@H]1[C@H](C)[C@@H]1C[C@@](O)(NC(=O)O1)[C@H](OC)/C=C/C=C(\C)C2	4.22%
C[C@@H](O)[C@H]1C(=O)N2C(C(=O)[O-])=C(SC3Cn4cnc[n+]4C3)[C@H](C)[C@H]12 (stereo partly drawn)	-4.8%
COc1cc2ncn(-c3cc(OCc4ccccc4C(F)(F)F)c(C(N)=O)s3)c2cc1OC	3.06%
C=C1/C(=C\C=C2/CCC[C@]3(C)[C@@H]([C@H](C)CCCC(C)C)CC[C@@H]23)C[C@@H](O)C[C@@H]1O	29.2%
CC[N+]1(C)CCCC(OC(=O)C(O)(c2ccccc2)c2ccccc2)C1 (stereo not drawn)	4.51%
CC(C)NC[C@@H](C(=O)N1CCN(c2ncnc3c2[C@H](C)C[C@H]3O)CC1)c1ccc(Cl)cc1	3.98%
C[C@H](CCC(=O)O)[C@H]1CC[C@H]2[C@@H]3[C@H](O)C[C@@H]4C[C@H](O)CC[C@]4(C)[C@H]3CC[C@]12C	10.3%
Nc1ccc(-c2nc3ccc(-c4nc5ccc(N)cc5[nH]4)cc3[nH]2)cc1	24%
CN1CCN(c2c(F)cc3c(=O)c(C(=O)O)cn4c3c2SCC4)CC1	6.8%
O=C1c2ccccc2C(=O)C1c1ccc(Cl)cc1	4.96%
CS(=O)(=O)Nc1ccc(Cc2noc(-c3ccc4[nH]cc(CCN)c4c3)n2)cc1	8.96%
COC(=O)c1cc(OC)c2c(c1-c1c(C(=O)OC)cc(OC)c3c1OCO3)OCO2	2.44%
CC(=O)NCCCS(=O)(=O)O	3.64%
CC1=C(C(=O)O)N2C(=O)[C@@H](NC(=O)[C@H](N)c3ccccc3)[C@H]2SC1	5.41%

Series 5
Target: Sal-like protein 4, full length isoform A (SALL4, Homo sapiens, UniProt Q9UJQ4, residues 1-1053)
Chain of UniProt Q9UJQ4 (whole entry, looked up): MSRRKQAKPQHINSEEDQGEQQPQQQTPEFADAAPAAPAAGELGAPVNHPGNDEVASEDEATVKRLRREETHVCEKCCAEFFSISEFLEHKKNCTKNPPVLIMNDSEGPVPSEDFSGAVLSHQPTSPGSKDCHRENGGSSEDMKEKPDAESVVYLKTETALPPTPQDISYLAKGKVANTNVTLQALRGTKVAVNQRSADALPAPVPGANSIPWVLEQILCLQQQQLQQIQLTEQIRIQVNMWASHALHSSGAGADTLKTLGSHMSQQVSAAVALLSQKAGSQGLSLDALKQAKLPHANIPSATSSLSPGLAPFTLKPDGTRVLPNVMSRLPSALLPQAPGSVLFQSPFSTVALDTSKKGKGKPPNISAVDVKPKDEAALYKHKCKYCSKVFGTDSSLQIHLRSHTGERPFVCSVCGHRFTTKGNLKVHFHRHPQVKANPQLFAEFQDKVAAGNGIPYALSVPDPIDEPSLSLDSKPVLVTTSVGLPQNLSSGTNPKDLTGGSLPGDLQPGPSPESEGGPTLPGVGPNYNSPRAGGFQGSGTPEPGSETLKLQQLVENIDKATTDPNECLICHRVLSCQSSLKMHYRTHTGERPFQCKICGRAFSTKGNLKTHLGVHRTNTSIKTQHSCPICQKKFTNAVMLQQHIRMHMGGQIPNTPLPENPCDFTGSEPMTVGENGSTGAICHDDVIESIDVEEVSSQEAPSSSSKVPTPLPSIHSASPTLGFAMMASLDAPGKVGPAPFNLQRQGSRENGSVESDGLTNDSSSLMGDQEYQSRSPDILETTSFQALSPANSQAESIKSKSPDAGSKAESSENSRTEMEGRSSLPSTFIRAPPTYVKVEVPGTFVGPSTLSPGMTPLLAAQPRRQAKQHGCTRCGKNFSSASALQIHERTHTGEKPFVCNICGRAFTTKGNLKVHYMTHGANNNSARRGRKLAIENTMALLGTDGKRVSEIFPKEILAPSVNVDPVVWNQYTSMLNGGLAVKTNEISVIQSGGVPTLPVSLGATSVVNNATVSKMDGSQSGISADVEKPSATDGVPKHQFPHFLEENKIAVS
Technique: universal PBM
Form: double-stranded DNA, one strand shown
Sample: in vitro
Concentration: 600 nM
Notes: 8-mer, flanks averaged, mean of replicates
Reading: higher = stronger binding
Oligonucleotide	E-score
AGTGACAT	0.111
GTCTTTAA	0.168
ACTCTAGA	0.0599
CTACCCGC	-0.277
CTTGAGCC	-0.142
CACCAAAC	0.00228
AGCCAAAT	0.0268
ATCAACGC	0.161

Other studies, line by line
Molecule	cell line	test	system	conditions	how to read	endpoint	value
CO[C@H]1/C=C/O[C@@]2(C)Oc3c(C)c(O)c4c(c3C2=O)C2=NC3(CCN(CC(C)C)CC3)NC2=C(NC(=O)/C(C)=C\C=C\[C@H](C)[C@H](O)[C@@H](C)[C@@H](O)[C@@H](C)[C@H](OC(C)=O)[C@@H]1C)C4=O	HEK-293T	pseudovirus infection	VSV pseudotyped with SARS-CoV-2 spike	10 µM, 16 h	baseline: vehicle-treated	GFP-positive cells	134%
bleomycin sulfate	HEK-293T/ACE2	–	–	concentration not given	baseline: vehicle	nuclei number	93.8%

Some of these lines once more (series 2):
Structure (SMILES)	inhibition [%]
CO[C@H]1C([C@@]2(C)O[C@@H]2CC=C(C)C)[C@]2(CC[C@H]1OC(=O)NC(=O)CCl)CO2 (stereo partly drawn)	58.2
CN1CCN(C2=C(Cl)C(=O)N(c3ccc(Cl)c(Cl)c3)C2=O)CC1	110
COc1ccc2[nH]c(S)nc2c1	81.4
NS(=O)(=O)c1ccc2c(c1)C1C=CCC1C(c1ccc(Br)cc1)N2 (stereo not drawn)	1.6
